Experimental data collected from several papers.
± gives the spread as reported.

`CCC(CC)OC1C=C(C(=O)OC(C)OC(=O)C(N)C(C)C)CC(NC(=N)N)C1NC(C)=O` (mixture of isomers) has a Tmax of 132 ± 66 min (mouse (fasted), plasma; oral, 10 mg/kg).
`CCOP(=O)(OCC)OCCCCOC(=O)CC1=C(C)C(=Cc2ccc([S+](C)[O-])cc2)c2ccc(F)cc21` (stereo not shown) gave a Tmax of 0 min (HPLC; mouse, lung tissue; inhalation, 8 min exposure).
For `COCC[C@H](NC(=O)[C@H](CC(C)C)N(C)C(=O)CNC(=O)[C@@H](NC(=O)[C@H](Cc1ccc(O)cc1)NC(=O)[C@H](CCCCNC(=O)COCCOCCNC(=O)COCCOCCNC(=O)CC[C@H](NC(=O)CCCCCCCCCCCCCCCCC(=O)O)C(=O)O)NC(=O)[C@@H](N)CC(=O)O)C(C)C)C(N)=O`, the Tmax was 120 min (mouse, blood; subcutaneous, 325 nmol/kg).
With `Cc1ccc(NS(=O)(=O)c2c(C(=O)N3CCCCCC3)c(C)n(C)c2C)c(Cl)c1` the Tmax was ~12 min (ICR mouse, male, plasma; oral, dose not given).
`Cc1cc(Nc2nc(C[C@@]3(C(=O)O)CCN(Cc4cccc(Cl)c4F)[C@H](C)C3)cc(C)c2F)n[nH]1` has a Tmax of ≤ 15 min (BALB/c nude mouse, female, NCI-H446 xenograft, plasma; oral, 10 mg/kg).
With `N#CC1(c2ccc3c(N)ncnn23)OC(COP(=O)(O)OP(=O)(O)OP(=O)(O)O)C(O)C1O` (stereo not shown) the Tmax was 240 min (LC-MS/MS; CD-1 mouse male, liver; oral, 100 mg/kg of remdesivir).
The Tmax of `CC(C)(CCCC/C=C/CCCCCC(C)(C)C(=O)O)C(=O)O` is reported as 7.8 min (ICR mouse, plasma; oral, 10 mg/kg).
`C/C(=N\OCCCN1CCCCC1)c1ccc(C(F)(F)F)cc1` has a Tmax of 4.8 min (C57BL/6 mouse; intravenous, 5 mg/kg).
`CCCCCCCC/C=C\CCCCCCCCOP(O)(O)=S.N` gave a Tmax of 30 min (mouse, male, irradiated; sc, dose not given, 15.6 Gy partial-body, dosed 24 h after).
With `O=C1CC(=O)N(c2ccccc2)c2cc(Cl)ccc2N1` the Tmax was 120 to 180 min (dried blood spot LC-MS/MS; mouse C57BL/6, whole blood; oral, 30 mg/kg).

Excerpt of the above:
`CCC(CC)OC1C=C(C(=O)OC(C)OC(=O)C(N)C(C)C)CC(NC(=N)N)C1NC(C)=O` (mixture of isomers) has a Tmax of 132 ± 66 min (mouse (fasted), plasma; oral, 10 mg/kg).
